Results pooled from the literature.
A part holds a random share of what one study measured. Changes are numbered by the printed parent chain.
UniProt Q9UPZ9, sequence (whole entry, looked up): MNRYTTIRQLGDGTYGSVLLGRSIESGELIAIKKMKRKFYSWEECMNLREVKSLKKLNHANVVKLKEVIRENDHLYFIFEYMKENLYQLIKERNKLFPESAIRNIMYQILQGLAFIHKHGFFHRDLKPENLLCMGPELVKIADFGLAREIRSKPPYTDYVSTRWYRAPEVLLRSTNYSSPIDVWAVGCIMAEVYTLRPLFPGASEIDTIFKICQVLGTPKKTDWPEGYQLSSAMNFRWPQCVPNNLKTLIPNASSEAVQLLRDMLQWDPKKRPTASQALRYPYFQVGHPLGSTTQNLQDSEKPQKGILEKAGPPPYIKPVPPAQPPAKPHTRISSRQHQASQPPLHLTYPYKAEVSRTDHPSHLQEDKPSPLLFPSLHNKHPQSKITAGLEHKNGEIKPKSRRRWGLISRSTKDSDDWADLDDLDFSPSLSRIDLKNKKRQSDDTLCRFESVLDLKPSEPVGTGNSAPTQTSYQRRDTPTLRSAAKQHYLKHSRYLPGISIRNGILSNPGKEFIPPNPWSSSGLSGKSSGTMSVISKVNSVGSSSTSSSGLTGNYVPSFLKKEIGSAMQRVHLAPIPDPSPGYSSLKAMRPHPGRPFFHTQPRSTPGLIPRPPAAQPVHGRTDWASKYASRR
UniProt Q6DT37, sequence (whole entry, looked up): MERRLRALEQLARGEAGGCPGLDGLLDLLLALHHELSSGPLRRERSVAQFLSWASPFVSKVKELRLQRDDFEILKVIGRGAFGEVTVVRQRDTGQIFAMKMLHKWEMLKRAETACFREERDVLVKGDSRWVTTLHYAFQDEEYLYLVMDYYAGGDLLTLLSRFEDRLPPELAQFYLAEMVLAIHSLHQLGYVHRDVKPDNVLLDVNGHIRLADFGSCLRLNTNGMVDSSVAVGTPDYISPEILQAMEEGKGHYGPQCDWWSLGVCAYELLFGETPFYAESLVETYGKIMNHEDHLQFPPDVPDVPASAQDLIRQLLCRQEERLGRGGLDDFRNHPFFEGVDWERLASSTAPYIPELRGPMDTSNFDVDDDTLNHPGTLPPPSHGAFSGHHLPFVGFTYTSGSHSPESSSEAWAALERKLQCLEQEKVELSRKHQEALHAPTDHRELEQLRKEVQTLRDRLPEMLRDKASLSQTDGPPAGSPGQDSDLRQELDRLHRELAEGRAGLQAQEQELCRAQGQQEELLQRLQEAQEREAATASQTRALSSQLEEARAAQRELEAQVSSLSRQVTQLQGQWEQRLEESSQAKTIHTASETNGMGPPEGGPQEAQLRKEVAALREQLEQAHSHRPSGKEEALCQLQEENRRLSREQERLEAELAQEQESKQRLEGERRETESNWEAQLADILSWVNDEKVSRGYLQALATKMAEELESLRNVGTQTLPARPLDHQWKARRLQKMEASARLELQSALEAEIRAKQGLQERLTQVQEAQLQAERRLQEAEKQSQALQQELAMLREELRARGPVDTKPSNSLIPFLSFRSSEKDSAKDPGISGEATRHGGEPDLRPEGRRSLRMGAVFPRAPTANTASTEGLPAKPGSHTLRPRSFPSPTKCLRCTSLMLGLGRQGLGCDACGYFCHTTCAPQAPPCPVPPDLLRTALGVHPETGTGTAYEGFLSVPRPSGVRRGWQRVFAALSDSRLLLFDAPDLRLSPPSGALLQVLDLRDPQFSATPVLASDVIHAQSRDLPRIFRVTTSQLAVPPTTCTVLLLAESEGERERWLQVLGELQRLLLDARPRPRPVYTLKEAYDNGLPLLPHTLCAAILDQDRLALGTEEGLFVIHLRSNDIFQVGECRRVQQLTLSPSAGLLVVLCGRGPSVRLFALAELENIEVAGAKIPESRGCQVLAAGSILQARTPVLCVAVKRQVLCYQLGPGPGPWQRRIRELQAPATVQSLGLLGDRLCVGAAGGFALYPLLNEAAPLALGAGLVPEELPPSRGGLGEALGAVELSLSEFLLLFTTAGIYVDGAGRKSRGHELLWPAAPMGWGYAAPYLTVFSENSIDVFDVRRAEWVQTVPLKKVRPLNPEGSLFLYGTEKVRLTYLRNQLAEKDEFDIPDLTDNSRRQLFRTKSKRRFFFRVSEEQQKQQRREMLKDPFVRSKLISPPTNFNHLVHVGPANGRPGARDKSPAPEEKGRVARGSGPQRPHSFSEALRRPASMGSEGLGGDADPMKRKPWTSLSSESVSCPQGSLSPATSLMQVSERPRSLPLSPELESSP
UniProt O75747, sequence (whole entry, looked up): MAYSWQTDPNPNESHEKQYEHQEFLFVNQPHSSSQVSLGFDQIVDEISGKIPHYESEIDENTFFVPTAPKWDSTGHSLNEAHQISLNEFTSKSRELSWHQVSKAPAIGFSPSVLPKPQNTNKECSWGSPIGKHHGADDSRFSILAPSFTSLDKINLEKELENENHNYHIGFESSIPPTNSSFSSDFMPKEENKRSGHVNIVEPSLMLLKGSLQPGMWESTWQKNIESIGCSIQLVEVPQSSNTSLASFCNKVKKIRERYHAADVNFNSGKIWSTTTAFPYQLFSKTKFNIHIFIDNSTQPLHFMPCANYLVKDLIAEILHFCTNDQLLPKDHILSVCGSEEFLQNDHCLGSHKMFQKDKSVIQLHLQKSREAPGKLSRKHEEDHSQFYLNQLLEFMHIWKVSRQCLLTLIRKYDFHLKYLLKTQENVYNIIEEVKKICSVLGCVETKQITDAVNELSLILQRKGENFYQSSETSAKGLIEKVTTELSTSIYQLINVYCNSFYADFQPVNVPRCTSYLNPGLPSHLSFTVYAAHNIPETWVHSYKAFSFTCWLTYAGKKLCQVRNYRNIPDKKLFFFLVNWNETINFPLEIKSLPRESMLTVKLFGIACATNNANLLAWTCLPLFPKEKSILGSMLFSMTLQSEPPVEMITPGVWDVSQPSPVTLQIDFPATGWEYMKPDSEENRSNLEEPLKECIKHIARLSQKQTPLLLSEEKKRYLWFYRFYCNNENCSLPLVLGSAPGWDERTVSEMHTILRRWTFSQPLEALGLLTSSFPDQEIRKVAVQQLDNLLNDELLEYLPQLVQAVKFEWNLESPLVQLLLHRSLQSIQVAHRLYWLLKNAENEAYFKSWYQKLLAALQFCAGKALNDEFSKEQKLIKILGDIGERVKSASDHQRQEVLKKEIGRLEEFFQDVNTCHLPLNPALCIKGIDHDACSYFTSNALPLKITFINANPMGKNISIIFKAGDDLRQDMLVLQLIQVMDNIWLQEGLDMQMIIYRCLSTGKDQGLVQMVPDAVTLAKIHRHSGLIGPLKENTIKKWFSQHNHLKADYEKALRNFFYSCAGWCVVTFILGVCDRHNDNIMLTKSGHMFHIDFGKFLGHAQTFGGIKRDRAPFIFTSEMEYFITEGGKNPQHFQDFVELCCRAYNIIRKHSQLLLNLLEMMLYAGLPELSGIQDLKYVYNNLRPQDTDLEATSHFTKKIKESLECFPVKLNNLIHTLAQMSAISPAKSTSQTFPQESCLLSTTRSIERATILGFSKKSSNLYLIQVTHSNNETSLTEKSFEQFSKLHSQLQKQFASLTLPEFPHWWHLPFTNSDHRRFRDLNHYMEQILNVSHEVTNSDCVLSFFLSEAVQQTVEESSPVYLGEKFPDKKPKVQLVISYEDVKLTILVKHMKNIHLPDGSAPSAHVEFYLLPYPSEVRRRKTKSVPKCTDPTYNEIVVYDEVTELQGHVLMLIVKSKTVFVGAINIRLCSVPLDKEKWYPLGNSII
UniProt P11309, sequence (whole entry, looked up): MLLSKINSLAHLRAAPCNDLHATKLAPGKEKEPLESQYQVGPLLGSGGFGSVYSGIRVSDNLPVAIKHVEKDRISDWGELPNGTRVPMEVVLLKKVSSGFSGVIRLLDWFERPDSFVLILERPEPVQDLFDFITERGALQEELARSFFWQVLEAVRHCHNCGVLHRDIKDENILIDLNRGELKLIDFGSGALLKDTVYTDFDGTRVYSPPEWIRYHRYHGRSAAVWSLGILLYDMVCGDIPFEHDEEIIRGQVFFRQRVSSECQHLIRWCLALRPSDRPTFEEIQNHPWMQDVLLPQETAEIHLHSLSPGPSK
UniProt Q9UQM7, sequence (whole entry, looked up): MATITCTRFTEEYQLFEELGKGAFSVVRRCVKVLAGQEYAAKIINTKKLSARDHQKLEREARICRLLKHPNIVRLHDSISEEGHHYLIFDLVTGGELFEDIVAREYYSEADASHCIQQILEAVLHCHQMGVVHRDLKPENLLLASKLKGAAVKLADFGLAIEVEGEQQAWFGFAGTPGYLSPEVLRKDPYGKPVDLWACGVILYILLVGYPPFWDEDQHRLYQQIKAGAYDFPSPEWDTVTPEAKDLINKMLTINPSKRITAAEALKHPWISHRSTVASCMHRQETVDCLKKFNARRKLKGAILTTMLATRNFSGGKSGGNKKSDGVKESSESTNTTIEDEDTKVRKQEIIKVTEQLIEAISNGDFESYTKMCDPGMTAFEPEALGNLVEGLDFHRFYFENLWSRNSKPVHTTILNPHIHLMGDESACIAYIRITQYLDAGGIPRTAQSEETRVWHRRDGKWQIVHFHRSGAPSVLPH
UniProt P36894, sequence (whole entry, looked up): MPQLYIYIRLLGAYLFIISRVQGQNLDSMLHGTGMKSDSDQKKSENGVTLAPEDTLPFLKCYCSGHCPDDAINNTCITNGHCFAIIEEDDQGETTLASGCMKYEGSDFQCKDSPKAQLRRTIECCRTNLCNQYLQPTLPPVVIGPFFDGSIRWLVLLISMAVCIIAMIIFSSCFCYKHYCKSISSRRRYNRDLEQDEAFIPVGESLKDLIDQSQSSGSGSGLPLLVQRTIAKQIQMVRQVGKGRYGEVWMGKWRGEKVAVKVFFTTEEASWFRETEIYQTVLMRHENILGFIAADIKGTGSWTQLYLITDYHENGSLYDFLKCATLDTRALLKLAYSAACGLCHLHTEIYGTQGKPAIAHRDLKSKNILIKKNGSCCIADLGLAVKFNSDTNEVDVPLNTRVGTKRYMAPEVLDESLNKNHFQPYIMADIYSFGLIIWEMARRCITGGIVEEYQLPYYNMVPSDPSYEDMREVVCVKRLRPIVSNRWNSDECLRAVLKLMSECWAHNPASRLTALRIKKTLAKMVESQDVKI

Study 1
Target: CCNE1, cyclin fold, Cln2 fusion (human)
Technique: yeast growth competition, sequencing
Matrix: yeast
Notes: strong parent motif
Baseline: not given
Reading: higher = stronger binding
Parent: viral docking peptide; CKVKRKLFGSENI
Variant	normalised enrichment score
CKVKRKLFASENI [G9A]	6.4
CAVKRKLFGSENI [K2A]	5.43
CKVKAKLFGSENI [R5A]	0.324
AKVKRKLFGSENI [C1A]	5.3

Study 2
Target: HLA class I histocompatibility antigen, C alpha chain, allele C*04:01 (Homo sapiens, UniProt P10321)
Read-out: peptide-MHC binding
Form: peptide
Concentration: concentration not given
Sequence	binding
VMPPRTLLL	inactive
RQNAPFEPI	inactive
FYPPVLQPI	inactive
LQPSDTLLF	inactive
MPFAWQFGF	inactive
MVRQMRAAL	inactive
STFDLYVYR	inactive
FTDISMSLY	inactive

Study 3
Structure (SMILES): Cn1cncc1[C@](O)(COc1ccc(C#N)cc1-c1ccc(OC(F)(F)F)cc1)c1ccc(C#N)cc1
Concentration: 1 µM
target	read-out	technique	remaining binding [%]
Mast/stem cell growth factor receptor Kit (KIT, Homo sapiens, UniProt P10721, V559D)	cell-free assay	competition with immobilised ligand	100
Serine/threonine-protein kinase ICK (CILK1, Homo sapiens, UniProt Q9UPZ9)	binding	competition with immobilised ligand	100
Calcium/calmodulin-dependent protein kinase type 1G (CAMK1G, Homo sapiens, UniProt Q96NX5)	cell-free assay	competition with immobilised ligand	96
Epidermal growth factor receptor (EGFR, Homo sapiens, UniProt P00533, L861Q)	cell-free assay	competition with immobilised ligand	71
Bone morphogenetic protein receptor type-1A (BMPR1A, Homo sapiens, UniProt P36894)	binding	competition with immobilised ligand	91
Phosphatidylinositol 3-kinase C2 domain-containing subunit gamma (PIK3C2G, Homo sapiens, UniProt O75747)	cell-free assay	competition with immobilised ligand	81
Serine/threonine-protein kinase pim-1 (PIM1, Homo sapiens, UniProt P11309)	cell-free assay	competition with immobilised ligand	96
Serine/threonine-protein kinase PRP4 homolog (PRPF4B, Homo sapiens, UniProt Q13523)	cell-free assay	competition with immobilised ligand	100
Serine/threonine-protein kinase MRCK alpha (CDC42BPA, Homo sapiens, UniProt Q5VT25)	cell-free assay	competition with immobilised ligand	78
cAMP-dependent protein kinase catalytic subunit beta (PRKACB, Homo sapiens, UniProt P22694)	cell-free assay	competition with immobilised ligand	93
Serine/threonine-protein kinase MRCK gamma (CDC42BPG, Homo sapiens, UniProt Q6DT37)		competition binding	85
Protein kinase C theta type (PRKCQ, Homo sapiens, UniProt Q04759)	cell-free assay	competition with immobilised ligand	79
Ribosomal protein S6 kinase alpha-5, C-terminal kinase domain (RPS6KA5, Homo sapiens, UniProt O75582)	cell-free assay	competition with immobilised ligand	76

Further values, each from its own experiment
Compound	target	read-out	action	concentration	measurement	value
CO[C@H]1C[C@H](O[C@H]2CC[C@@]3(C)[C@H](CC[C@@H]4[C@@H]3CC[C@]3(C)[C@@H](C5=CC(=O)OC5)[C@@H](OC(C)=O)C[C@]43O)C2)O[C@@H](C)[C@@H]1O	Calcium/calmodulin-dependent protein kinase type II subunit alpha (CAMK2A, Homo sapiens, UniProt Q9UQM7)	enzyme activity	inhibitor	10 µM	inhibition	-5%

For quick reference, copied from above (study 3):
target	read-out	technique	remaining binding [%]
Calcium/calmodulin-dependent protein kinase type 1G (CAMK1G, Homo sapiens, UniProt Q96NX5)	cell-free assay	competition with immobilised ligand	96
Ribosomal protein S6 kinase alpha-5, C-terminal kinase domain (RPS6KA5, Homo sapiens, UniProt O75582)	cell-free assay	competition with immobilised ligand	76
cAMP-dependent protein kinase catalytic subunit beta (PRKACB, Homo sapiens, UniProt P22694)	cell-free assay	competition with immobilised ligand	93
